Results collected from several papers.
Numbered parts are unrelated; each lists some results of a single study. Several values in a cell are separate wells, animals, samples, runs or records.

Series 1
SMILES: Cn1cc(-c2cccc(CN3CCC4(CC3)COc3c4ccc4c3CN([C@H]3CCC(=O)NC3=O)C4=O)c2)cn1
Target: CRBN/Zinc finger protein Helios (Homo sapiens, UniProt Q96SW2+Q9UKS7)
Mode: degrader
Quantity: DC50
protein level: ~6 nM
flow cytometry, measured: Helios; human primary regulatory T cells; 6 h: ~6 nM
Western blot, measured: Helios; Jurkat, CRBN expressing: < 37.4 nM

Series 2
Target: Membrane-associated tyrosine- and threonine-specific cdc2-inhibitory kinase (PKMYT1, Homo sapiens, UniProt Q99640)
Observed: binding
Technique: HTRF
Concentration: 1.37 nM
Quantity: inhibition
Target sequence (Q99640 1-499): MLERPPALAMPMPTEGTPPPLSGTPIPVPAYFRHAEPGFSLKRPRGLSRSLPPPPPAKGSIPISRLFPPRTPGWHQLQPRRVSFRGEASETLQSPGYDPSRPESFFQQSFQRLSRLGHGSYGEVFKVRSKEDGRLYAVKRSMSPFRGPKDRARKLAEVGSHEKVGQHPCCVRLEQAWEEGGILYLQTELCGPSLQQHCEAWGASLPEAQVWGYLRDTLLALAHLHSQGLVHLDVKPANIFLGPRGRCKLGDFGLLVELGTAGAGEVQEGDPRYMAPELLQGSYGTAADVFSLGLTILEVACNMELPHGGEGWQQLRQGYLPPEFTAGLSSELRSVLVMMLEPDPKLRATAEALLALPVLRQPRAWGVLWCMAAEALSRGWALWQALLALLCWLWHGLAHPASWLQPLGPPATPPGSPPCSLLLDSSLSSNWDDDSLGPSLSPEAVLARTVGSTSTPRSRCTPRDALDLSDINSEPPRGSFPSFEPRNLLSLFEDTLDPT
Cc1ccc(O)c(C)c1-c1cnc2[nH]c(-c3cnc(N4CCC(CN5CCN(c6ccc(N7CCC(=O)NC7=O)cc6F)CC5)CC4)nc3)cc2c1C#N: 17.9% and 16.2%
Cc1ccc(O)c(C)c1-c1cnc2[nH]c(-c3cnc(N4CCC(CN5CCN(c6ccc7c8c(cccc68)C(=O)N7C6CCC(=O)NC6=O)CC5)CC4)nc3)cc2c1C#N (racemic): 6.41% and 4.58%
Cc1ccc(O)c(C)c1-c1cnc2[nH]c(-c3cnc(N4CCC(CN5CCN(c6ccc(C(=O)NC7CCC(=O)NC7=O)c(F)c6)CC5)CC4)nc3)cc2c1C#N (racemic): 7.9% and 10.6%

Single results of other studies
N=C(N)NCCCCCCN1CCC23c4c5ccc(O)c4OC2c2nc4ccccc4cc2CC3(O)C1C5 (stereo not shown)  Ki (Mu-type opioid receptor (OPRM1, Homo sapiens, UniProt P35372); cell-free assay): 69.2 nM
CC[C@H](C)[C@H](NC(=O)[C@H](CO)NC(=O)[C@H](CCCNC(=N)N)NC(=O)[C@H](CCCNC(=N)N)NC(=O)[C@H](C)NC(=O)[C@H](CC(N)=O)NC(=O)[C@@H](N)CO)C(=O)N[C@@H](CC(N)=O)C(=O)N[C@@H](Cc1ccccc1)C(=O)NCC(=O)NCC(=O)N[C@@H](CO)C(=O)N[C@H](C(=O)O)[C@@H](C)O  Kd (Cyclin-dependent kinase 2/cyclin E1 (Homo sapiens, UniProt P24864+P24941); binding, competitive fluorescence polarization; added: FITC-PKN2-RxL peptide tracer): 30600 nM
CCCCCCCCN1CCC23c4c5ccc(O)c4OC2c2nc4ccccc4cc2CC3(O)C1C5 (stereo not shown)  Ki (Delta-type opioid receptor (OPRD1, Homo sapiens, UniProt P41143); ligand displacement, radioligand): 1.58 nM
N=C(N)NCCCCCN1CC[C@]23c4c5ccc(O)c4O[C@H]2c2[nH]c4ccccc4c2C[C@@]3(O)[C@H]1C5  EC50 (Kappa-type opioid receptor, with Gi1 (OPRK1, Homo sapiens, UniProt P41145); human cells): 150 nM
